Measured values collected from several papers.
Protocols differ between the studies behind these lines.
Target: Serine/threonine-protein kinase 36 (STK36, Homo sapiens, UniProt Q9NRP7)

Compound	assay	test system	setting	how to read	measurement	value
CCN1CCN(Cc2ccc(NC(=O)c3ccc(C)c(NC(=O)c4cncc(-c5cccs5)c4)c3)cc2C(F)(F)F)CC1	binding, competition with immobilised ligand	–	1 µM	–	remaining binding	0.75%
Nc1ncc2c(n1)-c1c([nH]c3ccc(C4=CCOCC4)cc13)CCC2	binding, competition with immobilised ligand	–	1 µM	–	remaining binding	100%
Cc1ccc(-c2c(/C=C(\C#N)C(=O)NC(C)C)n(CCCO)c3ncnc(N)c23)cc1	cell-free assay, competition with immobilised ligand	–	1 µM	–	remaining binding	100%
COc1c(Cl)cccc1Nc1c(-c2ccncc2C#C[C@@]2(C)CCCN2C(=O)/C=C/CN(C)C)[nH]c2c1C(=O)NCC2	binding, competition with immobilised ligand	–	3 µM	–	remaining binding	60%
COc1cc(Nc2nccc(-c3cnn4nc(OC)ccc34)n2)cc(C(F)(F)F)c1	binding, competition with immobilised ligand	–	1 µM	–	remaining binding	86%
CNC(=O)C1CCN(c2cc(C)c(F)cc2NC(=O)c2ccc(-c3cc(O)ccc3C)c(C)c2)CC1	binding, competition with immobilised ligand	–	1 µM	–	remaining binding	100%
CNC1C[S+]2CC[S+]3CC[S+](C1)[Ru-4]321([N]=C=S)[n]2c3ccc(OC)cc3c3c4c(c5cc(F)c[n+]1c5c32)C(=O)NC4=O (centres unmarked)	KinomeScan	–	0.1 µM	relative to: untreated	remaining binding	100%
Cc1ccc(C(=O)Nc2ccc(CN3CCN(C)CC3)c(C(F)(F)F)c2)cc1C#Cc1cnc2cccnn12	target engagement, NanoBRET	human cells	–	–	Hill slope	1.02
CCN1CCN(Cc2ccc(C(=O)Nc3ccc(C)c(NCc4cnc5[nH]ccc5c4OC)c3)cc2C(F)(F)F)CC1	binding, competition with immobilised ligand	–	1 µM	–	remaining binding	0.85%
C=CC(=O)N1CCc2ccc(-n3c(=O)ccc4cnc5ccc(-c6cnn(C)c6)cc5c43)cc21	KINOMEscan	–	1 µM	relative to: DMSO control	remaining binding	100%
COc1cc(Nc2nc(C)cc(-c3cnn4nc(OC)ccc34)n2)cc(C(F)(F)F)c1	binding, competition with immobilised ligand	–	1 µM	–	remaining binding	99%
CC(C)=CC1OC(C)(C)C2C=C3C(=O)C(Cl)=CC(O)C3C3C(O)C4OC4C(=O)C132 (centres unmarked)	cell-free assay, competition with immobilised ligand	–	10 µM	–	remaining binding	85%
C=CC(=O)N1CCCC(n2c(=O)c3ncccc3n(Cc3ccc(Oc4ccccc4)cc3)c2=O)C1 (centres unmarked)	cell-free assay, competition with immobilised ligand	–	1 µM	–	remaining binding	100%
Cc1cnc2nc1Nc1cccc(c1)COC/C=C/COCc1cc(ccc1OCCN1CCOCC1)N2	binding, competition with immobilised ligand	–	0.1 µM	–	remaining binding	93%

For quick reference, copied from above:
Compound	assay	test system	setting	how to read	measurement	value
Cc1ccc(C(=O)Nc2ccc(CN3CCN(C)CC3)c(C(F)(F)F)c2)cc1C#Cc1cnc2cccnn12	target engagement, NanoBRET	human cells	–	–	Hill slope	1.02
CCN1CCN(Cc2ccc(C(=O)Nc3ccc(C)c(NCc4cnc5[nH]ccc5c4OC)c3)cc2C(F)(F)F)CC1	binding, competition with immobilised ligand	–	1 µM	–	remaining binding	0.85%
